Experimental data of several laboratories.
Numbered parts are unrelated; each lists some results of a single study. Changes are numbered by the printed parent chain.

Set 1 — target: CREB3L2, bZIP domain (human); method: DHFR protein complementation; matrix: yeast; reference: wild-type JUN-FOS pair; reading: higher = stronger binding
Notes: single substitutions, most at no-binding floor
Parent: JUN, bZIP domain (human); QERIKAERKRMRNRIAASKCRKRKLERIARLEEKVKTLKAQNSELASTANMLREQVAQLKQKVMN; partner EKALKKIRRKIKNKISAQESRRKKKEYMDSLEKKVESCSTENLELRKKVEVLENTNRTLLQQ
`R53V` has a binding fitness of -1.53 natural log.
`N42K` has a binding fitness of -1.55 natural log.
The binding fitness of `L38H` is reported as -1.51 natural log.
With `V35Y` the binding fitness was -1.51 natural log.
For `E32N`, the binding fitness was -1.39 natural log.
`A57R` gave a binding fitness of -1.52 natural log.
`L45E` gave a binding fitness of -1.59 natural log.
`L45Q` has a binding fitness of -1.32 natural log.
`Q41F` has a binding fitness of -1.74 natural log.
With `T37E` the binding fitness was -1.5 natural log.
For `K39D`, the binding fitness was -1.43 natural log.
The binding fitness of `N42F` is reported as -1.39 natural log.
The binding fitness of `L31V` is reported as -1.55 natural log.
With `A29W` the binding fitness was -1.55 natural log.
`R30V` has a binding fitness of -1.35 natural log.
For `L45V`, the binding fitness was -1.43 natural log.
The binding fitness of `R30S` is reported as -1.43 natural log.
`E32L` has a binding fitness of -1.52 natural log.

Set 2 — method: DHFR PCA, deep sequencing; matrix: yeast; added: (+)-ABA 200 µM; reference: wild-type fitted maximum; reading: higher = stronger binding
Target: ABI1, truncated, D143A, DHFR fusion (Arabidopsis thaliana)
Notes: methotrexate growth selection, single substitutions
Parent: PYL1, truncated, DHFR fusion (Arabidopsis thaliana); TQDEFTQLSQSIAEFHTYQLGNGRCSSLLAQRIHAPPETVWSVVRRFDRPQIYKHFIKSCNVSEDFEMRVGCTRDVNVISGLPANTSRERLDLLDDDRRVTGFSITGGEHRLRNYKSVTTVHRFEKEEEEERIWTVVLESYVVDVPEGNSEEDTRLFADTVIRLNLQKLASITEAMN; partner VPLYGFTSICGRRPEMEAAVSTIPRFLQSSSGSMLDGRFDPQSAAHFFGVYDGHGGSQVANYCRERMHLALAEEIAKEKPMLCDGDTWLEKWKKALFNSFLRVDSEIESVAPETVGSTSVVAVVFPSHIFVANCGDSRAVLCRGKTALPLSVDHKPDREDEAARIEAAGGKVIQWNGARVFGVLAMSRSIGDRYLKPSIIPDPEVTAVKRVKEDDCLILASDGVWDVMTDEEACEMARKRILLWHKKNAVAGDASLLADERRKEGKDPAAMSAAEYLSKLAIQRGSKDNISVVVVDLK
`T120K`: “relative binding score” 0.164%.
For `G102L`, “relative binding score” read 2.03%.
For `K116T`, “relative binding score” read 98.7%.
`Q19V` — result for “relative binding score”: 99.2%.
`D153N` — result for “relative binding score”: 61.4%.
`L166A` — result for “relative binding score”: 5.28%.
Under “relative binding score”, `G148W` is recorded as 57.5%.
For `I133N`, “relative binding score” read 102%.
`R24W` — result for “relative binding score”: 68.2%.
`R163N` — result for “relative binding score”: 81.6%.
`H16P` — result for “relative binding score”: 13.3%.
Under “relative binding score”, `L20P` is recorded as 108%.
`I133S` — result for “relative binding score”: 104%.
For `I52T`, “relative binding score” read 102%.
Under “relative binding score”, `L94A` is recorded as 34.8%.
`G108K` — result for “relative binding score”: 33.9%.
For `D65S`, “relative binding score” read 98.3%.
For `L94W`, “relative binding score” read 94.9%.
`D48I`: “relative binding score” -2.43%.
For `E64M`, “relative binding score” read 92.9%.
Under “relative binding score”, `T39W` is recorded as 86.6%.

Set 3 — target: CCND2, cyclin fold, Cln2 fusion (human); method: yeast growth competition, sequencing; matrix: yeast; notes: weak parent motif; reference: not given; reading: higher = stronger binding
Parent: SCAPER docking peptide (human); SNARRSLNFGGST
`G11H` — result for “normalised enrichment score”: 0.0939.
`G10T`: “normalised enrichment score” 0.385.
`G11M` — result for “normalised enrichment score”: 0.304.
For `S6L`, “normalised enrichment score” read 0.658.
For `G11R`, “normalised enrichment score” read -0.118.
For `G11Q`, “normalised enrichment score” read 0.427.
Under “normalised enrichment score”, `G10K` is recorded as 0.406.
`F9L` — result for “normalised enrichment score”: 0.333.
For `N8R`, “normalised enrichment score” read -0.062.
`F9H` — result for “normalised enrichment score”: 0.0308.
`R4A`: “normalised enrichment score” 0.316.
Under “normalised enrichment score”, `S6K` is recorded as 1.19.
`R4E`: “normalised enrichment score” -0.0728.
For `R4Y`, “normalised enrichment score” read 0.154.
`G11Y` — result for “normalised enrichment score”: 0.153.
Under “normalised enrichment score”, `R4L` is recorded as -0.305.
`S1Q`: “normalised enrichment score” 0.391.
Under “normalised enrichment score”, `R5K F9L` is recorded as 0.00487.
Under “normalised enrichment score”, `S6N` is recorded as 0.328.
For `R5V`, “normalised enrichment score” read 0.426.
`G10A`: “normalised enrichment score” 0.596.
`N2I` — result for “normalised enrichment score”: 0.209.
Under “normalised enrichment score”, `S12L` is recorded as 0.566.
`F9R` — result for “normalised enrichment score”: 0.223.
`N2A` — result for “normalised enrichment score”: 0.606.

Set 4 — target: UBE2L3 UBC core domain (UniProt P68036); method: yeast two-hybrid; matrix: yeast; notes: mostly zero background; reference: not given; reading: higher = stronger interaction
UniProt P68036, sequence (whole entry, looked up): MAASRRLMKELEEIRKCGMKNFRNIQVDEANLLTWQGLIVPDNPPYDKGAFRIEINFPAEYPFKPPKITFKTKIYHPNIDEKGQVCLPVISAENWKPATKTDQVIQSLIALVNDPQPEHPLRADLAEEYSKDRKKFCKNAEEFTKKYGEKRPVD
B1: TRIM31 RING domain (UniProt Q9BZY9); chain FVNKLQEEVICPICLDILQKPVTIDCGHNFCLKCITQIGETSCGFFKCPLCKTSVRKNAIRF
B2: TRIM26 RING domain (UniProt Q12899); chain PLRSLEEEVTCSICLDYLRDPVTIDCGHVFCRSCTTDVRPISGSRPVCPLCKKPFKKENIRP
B3: DEF8 RING domain (UniProt Q6ZN54); chain AGRLGCSLTEIHTLFAKHIKLDCERCQAKGFVCELCREGDVLFPFDSHTSVCADCSAVFHRDCYYDNSTTCPKCARLSLRK
B4: MKRN2 RING domain (UniProt Q9H000); chain FAFQASQDKVCSICMEVILEKASASERRFGILSNCNHTYCLSCIRQWRCAKQFENPIIKSCPECRVISEFVIPSV
B5: RNF152 RING domain (UniProt Q8N8N0); chain ETLSQDSLLECQICFNYYSPRRRPKLLDCKHTCCSVCLQQMRTSQKDVRCPWCRGVTKLPPGFS
B6: RNF187 RING domain (UniProt Q5TA31); chain ALPAGPAEAACALCQRAPREPVRADCGHRFCRACVVRFWAEEDGPFPCPECADDCWQRAVEP
B7: TRIM22 RING domain (UniProt Q8IYM9); chain VKVDIEKEVTCPICLELLTEPLSLDCGHSFCQACITAKIKESVIISRGESSCPVCQTRFQPGNLRP
`AEADPLGRFTCPVCLEVYEKPVQVPCGHVFCSACLQECLKPKKPVCGVCRSALAPGVRAV (RNF114 RING domain (UniProt Q9Y508))`: “lacZ reporter activity” 0.
`B1 (TRIM31 RING domain)`: “lacZ reporter activity” 0.
For `B2 (TRIM26 RING domain)`, “lacZ reporter activity” read 0.
`MNDVLENELQCIICSEYFIEAVTLNCAHSFCSYCINEWMKRKIECPICRKDIKSKTYSL (RNF8 RING domain (UniProt O76064))` — result for “lacZ reporter activity”: 0.
`B3 (DEF8 RING domain)`: “lacZ reporter activity” 0.
`YCEMGSTFQLCKICAENDKDVKIEPCGHLMCTSCLTAWQESDGQGCPFCRCEIKGTEPII (CBLB RING domain (UniProt Q13191))`: “lacZ reporter activity” 0.
For `KPDKMEETLTCIICQDLLHDCVSLQPCMHTFCAACYSGWMERSSLCPTCRCPVERICKNH (CHFR RING domain (UniProt Q96EP1))`, “lacZ reporter activity” read 0.
Under “lacZ reporter activity”, `QVQSRTKIEECVVCSDKKAAVLFQPCGHMCACENCANLMKKCVQCRAVVERRVPFI (MIB1 RING domain (UniProt Q86YT6))` is recorded as 0.
`B4 (MKRN2 RING domain)`: “lacZ reporter activity” 0.
`LDAASGHPLVCPLCHGQYERPCLLDCFHDFCTGCLRGRATDGRLSCPLCQHQTLVKGPSG (Rnf207 RING domain (UniProt Q3V3A7))`: “lacZ reporter activity” 0.
Under “lacZ reporter activity”, `B5 (RNF152 RING domain)` is recorded as 0.
`B6 (RNF187 RING domain)`: “lacZ reporter activity” 0.
For `B7 (TRIM22 RING domain)`, “lacZ reporter activity” read 0.
